Assay results collected from several papers.
A part holds a random share of what one study measured. Substitutions count along the parent as printed.

Series 1 — method: protein-binding microarray; form: double-stranded DNA, one strand shown; medium: in vitro; tested at: 2200 nM top; setting: 60-bp whole probe; with: salmon DNA 0.4 mg/ml; relative to: random background probes; reading: higher = stronger binding; all sequences stand within: GCCTAGCAC … GTCTTGATTCGCTTGACGCTGCTG
Target: Interferon regulatory factor 7, full length, phosphomimetic (IRF7, Homo sapiens, UniProt Q92985, residues 1-503, S471D/S472D/S475D/S476D/S477D/S483D/S484D/S487D)
UniProt Q92985, sequence (whole entry, unmodified, looked up): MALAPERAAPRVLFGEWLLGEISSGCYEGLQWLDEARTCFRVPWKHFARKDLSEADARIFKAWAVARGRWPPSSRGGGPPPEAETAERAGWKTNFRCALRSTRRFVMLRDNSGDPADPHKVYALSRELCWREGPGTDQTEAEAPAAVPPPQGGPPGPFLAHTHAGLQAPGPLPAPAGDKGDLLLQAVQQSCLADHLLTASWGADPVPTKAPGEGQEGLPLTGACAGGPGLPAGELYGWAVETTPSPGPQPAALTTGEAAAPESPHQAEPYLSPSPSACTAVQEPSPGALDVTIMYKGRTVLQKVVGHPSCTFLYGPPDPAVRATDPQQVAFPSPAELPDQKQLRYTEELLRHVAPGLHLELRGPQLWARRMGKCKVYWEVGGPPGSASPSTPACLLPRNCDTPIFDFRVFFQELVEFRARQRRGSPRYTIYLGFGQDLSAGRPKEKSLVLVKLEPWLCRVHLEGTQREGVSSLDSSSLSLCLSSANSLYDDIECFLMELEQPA
Under “fitted relative affinity”, `GACGGTTTCGGTTCCGGGACGTGCTAG` is recorded as 11.6 z-score.
Under “fitted relative affinity”, `TTAGGTCTCTGTCTCGGTTAGTGCTAG` is recorded as 0.787 z-score.
For `GTAGGTATCCTACTGCTTTAGTGCTAG`, “fitted relative affinity” read 0.622 z-score.
`GTCGGTATCGGACTGGGGACGTGCTAG`: “fitted relative affinity” 0.174 z-score.
`TCACATATAATTTTGTCACTGTGCTAG` — result for “fitted relative affinity”: 0.92 z-score.
Under “fitted relative affinity”, `GACGATTGCAGACTGGAGACGTGCTAG` is recorded as -0.0147 z-score.
For `CATCATTGCCTATTTTTCCCCGTGCTA`, “fitted relative affinity” read 1.65 z-score.
`GGAAGCAGTGAGAAGGTGGCGTGCTAG`: “fitted relative affinity” -0.502 z-score.
For `TTAGGACTGCTCCTGCTTTAGTGCTAG`, “fitted relative affinity” read -0.232 z-score.
Under “fitted relative affinity”, `TTAGGTGTCCTTCTCCTTTAGTGCTAG` is recorded as 0.962 z-score.
Under “fitted relative affinity”, `GACGGTCTCGGACTGGCGACGTGCTAG` is recorded as -0.471 z-score.
Under “fitted relative affinity”, `TTAGGTTTCCACTTTCGGTTAGTGCTA` is recorded as 10.4 z-score.
`TTTCTTTTTGCACTCTCTACGTGCTAG` — result for “fitted relative affinity”: 9.54 z-score.
`GACGGTTTCGACACAGGGGACGTGCTA` — result for “fitted relative affinity”: 2.93 z-score.
For `GACGGTTTCGACTTTCGGGTCGTGCTA`, “fitted relative affinity” read 11.6 z-score.
`GACGGTTTCCTTTGCCTGACGTGCTAG` — result for “fitted relative affinity”: 2.68 z-score.
For `TTAGGTATCGAACTGGGTTAGTGCTAG`, “fitted relative affinity” read 0.00645 z-score.
Under “fitted relative affinity”, `TCATGAATGCCCTCTAACACTGTGCTA` is recorded as 0.598 z-score.
Under “fitted relative affinity”, `TCACCTCTGGGATCCCAGACTGTGCTA` is recorded as 0.483 z-score.
For `TTATGTCTCGGACTGGGTTAGTGCTAG`, “fitted relative affinity” read 0.359 z-score.
`TCAGATTTCGGGTTTCGATTAGTGCTA` — result for “fitted relative affinity”: 6.6 z-score.
`TCAGGTATGCTCATGACACTGTGCTAG`: “fitted relative affinity” 0.577 z-score.
`GACGCACTGAGTCTCGAGACGTGCTAG` — result for “fitted relative affinity”: 0.224 z-score.
For `GACTATTTCAGTTCCGAGACGTGCTAG`, “fitted relative affinity” read 1.71 z-score.
`GACGATTTCGGCTATCGAGACGTGCTA` — result for “fitted relative affinity”: 1.33 z-score.

Series 2 — method: RNA Bind-n-Seq; form: RNA; medium: in vitro; tested at: 365 nM; relative to: no-protein control; reading: higher = stronger binding
Target: RNA binding protein fox-1 homolog 2, RRM domain, GST-SBP tag (RBFOX2, Homo sapiens, UniProt O43251-10, residues 100-194)
Setting: natural RNA segment, single round, ends assumed
Target sequence (chain): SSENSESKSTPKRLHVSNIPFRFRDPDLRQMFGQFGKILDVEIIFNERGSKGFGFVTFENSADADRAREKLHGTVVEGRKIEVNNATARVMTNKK
Under “RBNS enrichment (R)”, `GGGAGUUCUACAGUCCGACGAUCUGUUUUUUUGUUUGUGAACUAGCUGUAUCCGCUUAGAAUGGUAACACAGAUGGUCGCUGCAAGCAGAUCCCUCUGAGCCUCUCUUCUGCUAGUGCCUGGCUUGCCACAUGUGGAAUUCUCGGGUGCCAA` is recorded as 0.409.
Under “RBNS enrichment (R)”, `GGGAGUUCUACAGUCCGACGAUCGGGGGCUGAUGGCUGCCCCUGCGUGGCCUGAGUCCUGGUCCCUCUGAGGCAGUUGACGGGGCAGUCAGAUUUUUAAAGUUUUGUACAAAGUUUUCCUUUGUAAUCACUCCUGGAAUUCUCGGGUGCCAA` is recorded as 0.453.
Under “RBNS enrichment (R)”, `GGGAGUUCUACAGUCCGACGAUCAAGAUAGGUUGUAAACUGAAUGCUGUGAUAAUACUCUGUAUUCUUUAUGGAAAAUGUUGUCCUGUACUUACUAGGCAAAACGUAUGAAUCGGAUUAACUGGAAAAUAUAUUGGAAUUCUCGGGUGCCAA` is recorded as 0.352.
`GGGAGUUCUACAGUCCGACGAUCUAAAUUUUAUUUGGUUUGUACUCAAUUCAAUUUCAAAAUUGCUAAAAUGUGUUUGAGCUUUAGACUAUAACAUUUGUUGUAAUAAUUGCUAGGUUGAAGUUCACCAUGUUUGGAAUUCUCGGGUGCCAA` — result for “RBNS enrichment (R)”: 0.558.
`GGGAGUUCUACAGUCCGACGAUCAUCUAAAAAGGUAAACUGGCAUAUCCAGGGCAAAUGUGGGCUGCCAAUGGCUCAUCUCUAGGGUAAUUUUAUGUCUGAAAGUGUAUGCAGUUGGGUCAGAGCAUGACCUUUGGAAUUCUCGGGUGCCAA` — result for “RBNS enrichment (R)”: 2.85.
Under “RBNS enrichment (R)”, `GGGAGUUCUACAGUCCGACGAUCAGCUGGGGCCUCUGAAGGGAUUCCUCACUGUGGGCAGCUGCCCUGAGCUUCAGGCAGCAGUGUUUAUCUCUGGCCAGUUGUCUGGUUUCCAUGUAUUCUAGGCCAGGUAGUGGAAUUCUCGGGUGCCAA` is recorded as 0.303.
`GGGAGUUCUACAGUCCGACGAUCGGGUAAUGAUCCAGACCGAGGCACCUCCAUAUGGCAUCAAACAAAUCUCUUCACUGUUUCUUUUUUAGGACUCCCUUUGCAAGGAGCAACUGUAAUAUUGUGGGACUAACUGGAAUUCUCGGGUGCCAA`: “RBNS enrichment (R)” 0.314.
Under “RBNS enrichment (R)”, `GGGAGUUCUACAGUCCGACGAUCUGACUUACUCACCCUUGUACAGUGUUUGCAUAGCAGAGUGAAGGUUACUUAUUACCCUCUUUCUCUCAAGUGCUUUAAAGAAGAAACCUCCCUGGUGUUUCUUUUCUUUUUGGAAUUCUCGGGUGCCAA` is recorded as 0.41.
`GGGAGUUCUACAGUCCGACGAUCUGAACAGCUGCUGUAGUGAUGAAACUCUUGCUUAAAAAGGAUGCCUCUUGUUUUUUGCUGCUGUAACUUACCAGAAAGUGUUCUAUAUUUAUUUCUGUUUGAAUUUGAAAUGGAAUUCUCGGGUGCCAA`: “RBNS enrichment (R)” 0.765.
`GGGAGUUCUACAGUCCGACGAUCUGAUCGCCAAGUUCAAAGCUGUGCACAUGUGGACACUCAAUAAAUGUUUAUUGGUGAUGAGAAGCCUCUUUGUGGUCUGCCUUGCACCUCCUCUGCCUUAACCUGCUCCUUGGAAUUCUCGGGUGCCAA` — result for “RBNS enrichment (R)”: 0.442.
`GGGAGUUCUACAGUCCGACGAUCUUUGACAGGGAAGGAAGUAACUGCAAAACACUAGGCUUUAGUAGGUACUUAUAUAAAAUCUAGUCCAGUUCUCUCAUUUAAAAAAAUGAAGACACUGAAAUACAGACUUAUGGAAUUCUCGGGUGCCAA`: “RBNS enrichment (R)” 0.368.
`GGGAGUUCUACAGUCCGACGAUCCCCACCGCUGAGAGGCUGCAGUGACUUCCCCAAGUACCGUGGUCUGUGCUAAUUUGUUUUCAGAUUAGUCUUCCUGUGGCCUCCAACACUCAGCCAGCCCUCAGAGUGUCUGGAAUUCUCGGGUGCCAA`: “RBNS enrichment (R)” 0.475.

Series 3 — method: RNA Bind-n-Seq; form: RNA; medium: in vitro; tested at: 20 nM; setting: 6-mer, flanks averaged, single round; with: 150 mM LiCl; relative to: input library; reading: higher = stronger binding
Target: TAR DNA-binding protein 43, full length, His tag (TARDBP, Homo sapiens, UniProt Q13148, residues 1-414)
`UGUAAC`: “6-mer enrichment (R)” 0.924.
Under “6-mer enrichment (R)”, `GCGUAU` is recorded as 1.06.
For `UCGCCU`, “6-mer enrichment (R)” read 0.895.
For `AGAGCC`, “6-mer enrichment (R)” read 0.912.
Under “6-mer enrichment (R)”, `UUUAGA` is recorded as 0.971.
Under “6-mer enrichment (R)”, `UGCCGU` is recorded as 0.964.
`UUAUCG`: “6-mer enrichment (R)” 0.93.
`AGCAUC`: “6-mer enrichment (R)” 0.794.
`GUUGUC`: “6-mer enrichment (R)” 1.05.
`CAUGCU`: “6-mer enrichment (R)” 0.895.
`GGACAG` — result for “6-mer enrichment (R)”: 1.03.
For `AUUAAC`, “6-mer enrichment (R)” read 0.884.
`GAGGAA`: “6-mer enrichment (R)” 0.993.
`CUUAUG` — result for “6-mer enrichment (R)”: 0.969.
`AGCUCG` — result for “6-mer enrichment (R)”: 0.83.
`AACUCA`: “6-mer enrichment (R)” 0.87.
Under “6-mer enrichment (R)”, `CUUCAC` is recorded as 0.875.
Under “6-mer enrichment (R)”, `ACAGCC` is recorded as 0.868.

Series 4 — target: CCND3, cyclin fold, Cln2 fusion (human); method: yeast growth competition, sequencing; medium: yeast; setting: weak parent motif; relative to: not given; reading: higher = stronger binding
Parent: ORC1 docking peptide (human); PRARKRLELGNLG; partner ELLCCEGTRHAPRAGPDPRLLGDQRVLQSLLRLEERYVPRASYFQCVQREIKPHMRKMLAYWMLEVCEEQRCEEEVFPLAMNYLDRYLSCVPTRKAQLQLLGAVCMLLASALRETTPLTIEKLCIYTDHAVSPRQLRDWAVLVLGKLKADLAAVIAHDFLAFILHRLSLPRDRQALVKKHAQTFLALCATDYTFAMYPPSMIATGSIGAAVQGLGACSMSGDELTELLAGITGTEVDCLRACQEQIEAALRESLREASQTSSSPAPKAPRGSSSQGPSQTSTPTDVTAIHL
Under “normalised enrichment score”, `R2S` is recorded as 0.0822.
`E8K` — result for “normalised enrichment score”: 0.0615.
`R2V`: “normalised enrichment score” 0.124.
`L12K` — result for “normalised enrichment score”: 0.107.
`G10H` — result for “normalised enrichment score”: 0.149.
`E8V` — result for “normalised enrichment score”: 0.183.
`N11K` — result for “normalised enrichment score”: 0.128.
`L9R`: “normalised enrichment score” 0.195.
For `L7Y`, “normalised enrichment score” read 0.15.
`N11L` — result for “normalised enrichment score”: 0.178.
`L9D`: “normalised enrichment score” 0.111.
Under “normalised enrichment score”, `E8N` is recorded as 0.143.
Under “normalised enrichment score”, `L7E` is recorded as 0.0924.
For `G13R`, “normalised enrichment score” read 0.072.
Under “normalised enrichment score”, `R4D` is recorded as 0.176.
`E8I` — result for “normalised enrichment score”: 0.078.
Under “normalised enrichment score”, `K5Q` is recorded as 0.0899.
`G13I`: “normalised enrichment score” 0.0475.
Under “normalised enrichment score”, `G13S` is recorded as 0.201.
`R6A`: “normalised enrichment score” -0.0324.
`K5P` — result for “normalised enrichment score”: 0.18.
`L7N` — result for “normalised enrichment score”: 0.0577.
Under “normalised enrichment score”, `K5V` is recorded as 0.0895.
`L7W` — result for “normalised enrichment score”: 0.141.
`G13W`: “normalised enrichment score” 0.0302.

Some of these lines once more (series 3):
Under “6-mer enrichment (R)”, `ACAGCC` is recorded as 0.868.
`GAGGAA`: “6-mer enrichment (R)” 0.993.
For `AGAGCC`, “6-mer enrichment (R)” read 0.912.
For `UCGCCU`, “6-mer enrichment (R)” read 0.895.
`UUAUCG`: “6-mer enrichment (R)” 0.93.
`CUUAUG` — result for “6-mer enrichment (R)”: 0.969.
`CAUGCU`: “6-mer enrichment (R)” 0.895.
